Experimental data collected from several papers.
Numbers after ± are the reported error.
Organism: Trypanosoma brucei brucei

`O=[N+]([O-])c1ccc(/C=N/N=C/c2ccc(O)cc2)s1` has an IC50 of 330 ± 120 nM (parasite growth, CellTiter-Glo; GUTat3.1 bloodstream form; 72 h).
With `CC(=O)OC[C@H]1O[C@@H]([Se]C(=O)c2ccc([N+](=O)[O-])cc2)[C@H](OC(C)=O)[C@@H](OC(C)=O)[C@@H]1OC(C)=O` the biosensor oxidation was 72% (flow cytometry; bloodstream form, hGrx1-roGFP2; EC50, 1 h; baseline: diamide 500 µM maximum and minimum oxidation).
`Cc1ccc(N2Cc3cc(NC(=O)N4CCN(c5cccc(C(F)(F)F)c5)CC4)ccc3C2=O)cc1` gave an IC50 of 2400 nM (parasite growth, resazurin; Squib 427; 3 d).
`CC(=O)OC[C@H]1O[C@@H]([Se][Se][C@@H]2O[C@H](COC(C)=O)[C@@H](OC(C)=O)[C@H](OC(C)=O)[C@H]2OC(C)=O)[C@H](OC(C)=O)[C@@H](OC(C)=O)[C@@H]1OC(C)=O` — result for “glucose consumption reduction”: ~10% (bloodstream form; EC50, 4 h; baseline: vehicle).
With `O=C(Nc1ccc2c(c1)CN(c1ccc(Br)cc1)C2=O)N1CCN(c2ccc(F)cc2)CC1` the IC50 was 400 nM (parasite growth, resazurin; Squib 427; 3 d).
For `CC(=O)N[C@@H]1[C@@H](OC(C)=O)[C@H](OC(C)=O)[C@@H](COC(C)=O)O[C@H]1[Se]c1ccc([N+](=O)[O-])cn1`, the viability was 93.9 ± 22.6% (bloodstream form; 5 µM, 24 h, 1 % DMSO).
The EC50 of `Nc1ncnc2c1c(Br)cn2[C@H]1C[C@H](O)[C@@H](CO)O1` is reported as 460 ± 80 nM (parasite growth, resazurin; Squib 427; 72 h).
With `O=C(Nc1ccc2c(c1)CN(c1ccccc1)C2=O)N1CC[C@H](F)C1` the IC50 was > 64000 nM (parasite growth, resazurin; Squib 427; 3 d).
For `Nc1ncnc2c1ccn2[C@@H]1O[C@H](CO)C[C@H]1O`, the EC50 was 48 ± 9 nM (parasite growth, resazurin; Squib 427; 72 h).
With `CC(=O)OC[C@H]1O[C@@H]([Se][C@@H]2O[C@H](COC(C)=O)[C@@H](OC(C)=O)[C@H](OC(C)=O)[C@H]2OC(C)=O)[C@H](OC(C)=O)[C@@H](OC(C)=O)[C@@H]1OC(C)=O` the EC50 was 3640 ± 110 nM (viability; bloodstream form; 24 h).
With `O=[N+]([O-])c1ccc(/C=N/N=C/c2ccc(OCc3ccccc3)cc2)o1` the IC50 was 500 ± 350 nM (parasite growth, CellTiter-Glo; GUTat3.1 bloodstream form; 72 h).
`Nc1ncnc2c1c(Br)cn2[C@@H]1O[C@H](CO)C[C@H]1O` has an EC50 of 1.3 ± 0.3 nM (parasite growth, resazurin; Squib 427; 72 h).
`CCOC(=O)C(NC(=O)CN1C(=O)N/C(=C\c2ccc3c(c2)OCO3)C1=O)C(C)C` (centres unmarked) gave an IC50 of > 66000 nM (cell viability; GUTat3.1; 72 h).
The IC50 of `O=[N+]([O-])c1ccc(/C=N/N=C/c2ccc(Br)cc2)o1` is reported as 760 ± 350 nM (parasite growth, CellTiter-Glo; GUTat3.1 bloodstream form; 72 h).
`O=C(Nc1ccc2c(c1)CN(c1ccc(Cl)cc1)C2=O)N1CCN(c2ccc(F)cc2)CC1` gave an IC50 of 3700 nM (parasite growth, resazurin; Squib 427; 3 d).
With `CCOC(=O)C(C)NC(=O)CN1C(=O)N/C(=C\c2ccc(C)cc2)C1=O` (centres unmarked) the IC50 was > 57000 nM (cell viability; GUTat3.1; 72 h).
For `CC(=O)N[C@@H]1[C@@H](OC(C)=O)[C@H](OC(C)=O)[C@@H](COC(C)=O)O[C@H]1[Se]Cc1ccc(C#N)cc1`, the viability was 93.8 ± 21.5% (bloodstream form; 5 µM, 24 h, 1 % DMSO).
With `Cc1ccc(N2Cc3cc(NC(=O)N4CCN(c5ccc(F)cc5)CC4)ccc3C2=O)cc1` the IC50 was > 64000 nM (parasite growth, resazurin; Squib 427; 3 d).
For `CC(=O)OC[C@H]1O[C@@H]([Se]Cc2ccccc2)[C@H](OC(C)=O)[C@@H](OC(C)=O)[C@@H]1OC(C)=O`, the viability was 94.2 ± 23.5% (bloodstream form; 5 µM, 24 h, 1 % DMSO).
For `COC(=O)c1cccc(-c2cc(C)c3ncc(C(N)=O)c(Nc4cccc(OC)c4)c3c2)c1`, the EC50 was 7000 ± 3900 nM (cell growth, Alamar blue; bloodstream form, strain 427; 48 h).
`Nc1ncnc2c1c(Cl)cn2[C@@H]1O[C@H](CO)C[C@H]1O` has an EC50 of 2.1 ± 0.04 nM (parasite growth, resazurin; Squib 427; 72 h).
`CC(=O)OC[C@H]1O[C@@H]([Se]c2ccc([N+](=O)[O-])cc2[N+](=O)[O-])[C@H](OC(C)=O)[C@@H](OC(C)=O)[C@@H]1OC(C)=O` has a biosensor oxidation of 13% (flow cytometry; bloodstream form, hGrx1-roGFP2; EC50, 1 h; baseline: diamide 500 µM maximum and minimum oxidation).
`O=C(Nc1ccc2c(c1)CN(c1ccc(Cl)cc1)C2=O)N1CC[C@H](F)C1` gave an IC50 of > 64000 nM (parasite growth, resazurin; Squib 427; 3 d).
`O=[N+]([O-])c1ccc(/C=N/N=C/c2ccc([N+](=O)[O-])o2)cc1` gave an IC50 of 1290 ± 380 nM (parasite growth, CellTiter-Glo; GUTat3.1 bloodstream form; 72 h).
`CCOC(=O)C(C)NC(=O)CN1C(=O)S/C(=C\c2ccc(F)cc2)C1=O` (centres unmarked) has an IC50 of > 64000 nM (cell viability; GUTat3.1; 72 h).
With `O=[N+]([O-])c1ccc(/C=N/N=C/c2ccc(OCc3ccccc3)cc2)s1` the IC50 was 4880 ± 4200 nM (parasite growth, CellTiter-Glo; GUTat3.1 bloodstream form; 72 h).
The EC50 of `Nc1ncnc2c1ccn2[C@H]1C[C@H](O)[C@@H](CO)O1` is reported as 48000 ± 1000 nM (parasite growth, resazurin; Squib 427; 72 h).
`O=[N+]([O-])c1ccc(/C=N/N=C/c2ccccc2)o1` has an IC50 of 3940 ± 2080 nM (parasite growth, CellTiter-Glo; GUTat3.1 bloodstream form; 72 h).
`CO[C@H]1O[C@H](COCc2ccccc2)[C@H]([Se][C@@H]2O[C@H](COC(C)=O)[C@@H](OC(C)=O)[C@H](OC(C)=O)[C@H]2NC(C)=O)[C@H](OC(C)=O)[C@H]1OC(C)=O` has a viability of 97.9 ± 22% (bloodstream form; 5 µM, 24 h, 1 % DMSO).
With `CCOC(=O)C(NC(=O)CN1C(=O)/C(=C/c2ccc3c(c2)OCO3)SC1=S)C(C)C` (centres unmarked) the IC50 was > 69000 nM (cell viability; GUTat3.1; 72 h).
With `C#Cc1cn([C@@H]2O[C@H](CO)C[C@H]2O)c2ncnc(N)c12` the EC50 was 5 ± 2 nM (parasite growth, resazurin; Squib 427; 72 h).
For `COc1ccc(/C=N/N=C/c2ccc([N+](=O)[O-])o2)cc1`, the IC50 was 2680 ± 1370 nM (parasite growth, CellTiter-Glo; GUTat3.1 bloodstream form; 72 h).
For `O=C(Nc1ccc2c(c1)CN(c1ccc(Cl)cc1)C2=O)N1CC[C@H](O)C1`, growth inhibition read “inactive” (cell growth, resazurin; Squib 427; concentration not given, 3 days).
The viability of `COc1ccc(C[Se][C@@H]2O[C@H](COC(C)=O)[C@@H](OC(C)=O)[C@H](OC(C)=O)[C@H]2OC(C)=O)cc1` is reported as 93.1 ± 9.3% (bloodstream form; 5 µM, 24 h, 1 % DMSO).
For `Cc1ncnc2c1c(C1=CCSCC1)cn2[C@@H]1O[C@H](CO)[C@@H](O)[C@H]1O`, the EC50 was > 64000 nM (resazurin; Squib 427; axenic HMI-9 medium).
The EC50 of `Cc1ccc2c(c1)nc(NC(=O)c1cccc(C(F)(F)F)c1)n2[C@H]1CC[C@H](N)CC1` is reported as 290 nM (cell growth, CellTiter-Glo; Lister 427 bloodstream form; 48 h).
With `O=C(Nc1ccc2c(c1)CN(c1ccc(F)c(F)c1)C2=O)N1CCN(c2ccc(F)cc2)CC1` the IC50 was > 64000 nM (parasite growth, resazurin; Squib 427; 3 d).
With `O=[N+]([O-])c1ccc(/C=N/N=C/c2ccc(O)cc2)o1` the IC50 was 3890 ± 2140 nM (parasite growth, CellTiter-Glo; GUTat3.1 bloodstream form; 72 h).

Repeated from above:
For `CC(=O)N[C@@H]1[C@@H](OC(C)=O)[C@H](OC(C)=O)[C@@H](COC(C)=O)O[C@H]1[Se]Cc1ccc(C#N)cc1`, the viability was 93.8 ± 21.5% (bloodstream form; 5 µM, 24 h, 1 % DMSO).
`Nc1ncnc2c1c(Br)cn2[C@@H]1O[C@H](CO)C[C@H]1O` has an EC50 of 1.3 ± 0.3 nM (parasite growth, resazurin; Squib 427; 72 h).
With `Cc1ccc(N2Cc3cc(NC(=O)N4CCN(c5ccc(F)cc5)CC4)ccc3C2=O)cc1` the IC50 was > 64000 nM (parasite growth, resazurin; Squib 427; 3 d).
